Experimental data from different studies.
Every numbered part comes from another study and shows a few of its results, in no order.

Study 1 — technique: RNA Bind-n-Seq; form: RNA; medium: in vitro; concentration: 365 nM; relative to: no-protein control; reading: higher = stronger binding; measurement: RBNS enrichment (R)
Target: RNA binding protein fox-1 homolog 2, RRM domain, GST-SBP tag (RBFOX2, Homo sapiens, UniProt O43251-10, residues 100-194)
Setting: natural RNA segment, single round, ends assumed
Residues (chain): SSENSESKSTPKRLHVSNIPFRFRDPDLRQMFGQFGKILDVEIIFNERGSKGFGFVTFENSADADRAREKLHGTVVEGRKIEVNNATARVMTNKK
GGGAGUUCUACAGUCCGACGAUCAUAAGUUGAAAGGCACUGGAACUGUUCAUGUCCAUACCAGACCGGUAAAUUAUAAGAUCCAGAUGUUAGUGUCUAGAAUUAGCUGUUUAGAAUUCAGAGGGGACAUAUGUUGGAAUUCUCGGGUGCCAA: 0.525
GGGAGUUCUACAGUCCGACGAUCCAUCCUGGAGUGCCUCAGUGACUGAGCAUCCUGAGGGCAAUGGCUGGGUCUCCUCAACUCUGCCCCAGCUUCUCGCAGCACAGGGCCAGGCACCAAGUGCGUAGGCGACGUGGAAUUCUCGGGUGCCAA: 0.346
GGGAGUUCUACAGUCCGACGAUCAGCCUCACCCGUCAUUUCAUUCUCUAUCCACUGUCUGUCACCUCCAGCAUGGAAAGGUUCAGCUGGAGACAUUUCUGAAACAGACUACUUUACUUUGAAGCAAACGUCUUUGGAAUUCUCGGGUGCCAA: 0.785
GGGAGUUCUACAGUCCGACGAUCCAGCUGGAAGGACACAGGUUGCCGGAGUCCCUGACACAGCUCCAGCAUAUCUGUGACCAUCUGCUCCUGAUAACCACUGUCCAGCAUCUCUUCGGGCCAGCCCGGUGCCAUGGAAUUCUCGGGUGCCAA: 0.365
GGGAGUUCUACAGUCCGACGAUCAGACCCAAGCCAAAUAUGGAUUCUAGGCUCUGGAACUGAUUGCUCCCAGGAUCUCCUGCCAGCCCAGCUGGCCUGGCCCCCAGCUUCACCUCUGGGACCCCAGCUGCUCUUGGAAUUCUCGGGUGCCAA: 0.231
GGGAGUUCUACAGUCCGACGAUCGAGUGAUGACGCAGAGACUCAGUGAACUUGAAAAUAGCAUUGCUUCGUGCACUUUGAAUACCAAUCAGGUGUUUUCUGUGCUACUAGUUGUCACGUUGCAUUCAUGUUCAUGGAAUUCUCGGGUGCCAA: 0.302
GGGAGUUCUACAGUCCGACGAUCAGGAAAUUAGAAUCUGUUUGCAAAUUGUCCAACCCACCCCCUCAACAUGAGGGGCUUCCAUUUUCUGUGUUUUGUAAGGGAACUGUUUCCUUCAUGCCGCCAUGUUCCUGUGGAAUUCUCGGGUGCCAA: 0.405
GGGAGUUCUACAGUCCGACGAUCGCUUCCACUCCAGGGCUCUUGAUCUCUGCUGGAUUGGGGGUGGCCACCUCAGAAACUUCCACCCUCAUGACUGGAAUGGAAGAGGGGACCGAGAGCCUCACAAUCUCGGAUGGAAUUCUCGGGUGCCAA: 0.903
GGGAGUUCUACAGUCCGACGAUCUCGCUUUCCUACCCCAAGCAAGUAUUGGUGGCCAUGGCAGCGUGGCGAAGCCAUGCUGGGCGGGAGCUGCACCUGCUGGCGUGGCUCUUCUCACUGAGCUCCUCGCCCCAUGGAAUUCUCGGGUGCCAA: 0.308
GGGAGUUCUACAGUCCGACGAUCCCUAACCUUCAGCCGAAUGUAACUGAUAAGUAUAUUCUAUGUAUAAAAAAAUGUUUAAAGAUGUCUUCAAGGAAGACUAGAGUCUUUAAAUCACUUAUAGCUAUAUUUUAUGGAAUUCUCGGGUGCCAA: 0.552
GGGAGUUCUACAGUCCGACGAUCAGGCAUUUUACAAAUUAUUUUUCAAGCAGUCAUUCUUGAUUGUUUGACUUUUUUUUUUAAAUUAAAGAUUGGGAAUGUAUGUGAGAGUAUGCAUAUGUAUGGGUGUGUGUUGGAAUUCUCGGGUGCCAA: 0.686
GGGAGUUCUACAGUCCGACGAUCUCGUUCAUCUGACCACGGGAUGUGUUUCUGAAGAAAAUCUGGAUGCCUGGUGUGUUAGGAACUGAACCUGGGACCCAAAGUGACUGAGGUGGGGGAAGGGAAAAGAAGGAUGGAAUUCUCGGGUGCCAA: 1.11

Study 2 — technique: RNA Bind-n-Seq; form: RNA; medium: in vitro; concentration: 200 nM; setting: whole 134-nt RNA, ends assumed; together with: 150 mM KCl; relative to: input library; reading: higher = stronger binding; measurement: log2 enrichment
Target: Fragile X messenger ribonucleoprotein 1, C-terminal low-complexity region (Fmr1, Mus musculus, UniProt P35922)
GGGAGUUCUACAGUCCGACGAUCAAGUCCUGUGCUACACAUCGUAUGUACCGAAUCGGGUGGGUUUUUUUGGGUUUGGGAAAGUAUUAUGUUACGCCGUUCGGAUCUGCACUUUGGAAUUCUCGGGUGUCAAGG: 0.687
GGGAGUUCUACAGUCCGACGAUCCAAGUCCUGUGCUACACAUCGUAUGUACCGAAUCGGAAAGGUUUUUGGUUUUUGGAAAGUAUUAUGUUACGCCGUUCGGAUCUGCACUUCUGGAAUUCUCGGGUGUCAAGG: -0.951
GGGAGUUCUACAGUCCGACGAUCACCAUGCAGGUGGGCAUCUUUGGGAAGUGGGGCAAGGGGGGGAUAGGGAGGGGGGUAACACUUUGGGAACAGGUGGUCCCAAAUCGUUUCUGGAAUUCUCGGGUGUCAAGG: 0.729
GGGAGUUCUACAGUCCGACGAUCUGCUUCUGAGUUGCCCAGGAGACCACUGGCAGAUGUCCCGGCGAAGAGAAGAGACACAUUGUUGGAAGAAGCAGCCCAUGACAGCUCCCCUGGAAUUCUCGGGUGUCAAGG: 0.156
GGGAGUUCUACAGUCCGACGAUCCAAGUCCUGUGCUACACAUCGUAUGUACCGAAUCGGUUUUUUUGGAAAGGAAAGGAAAGUAUUAUGUUACGCCGUUCGGAUCUGCACUUCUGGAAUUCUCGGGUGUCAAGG: -0.78
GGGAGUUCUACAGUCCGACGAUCCUCAAGUCCUGUGCUACACAUCGUAUGUACCGAAUCGGGGCGGGGCGGGCGGGGAAAGUAUUAUGUUACGCCGUUCGGAUCUGCACUUCCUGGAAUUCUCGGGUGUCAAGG: 1.14
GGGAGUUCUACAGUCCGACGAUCCACAGACAACAAACACCCACACAGACACAGAGGGAAGGGGUUGGGAUGGGGACAGGGUGCACAGCAGGGCGGGGUAGGACCCCAGCCCCUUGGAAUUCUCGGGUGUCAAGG: 1.59
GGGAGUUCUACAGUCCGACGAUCUAACUUUAGAGGAGGAUCUGAUGGAUAUGGAAGUGGACGUGGAUUUGGGGAUGGCUAUAAUGGGUAUGGAGGAGGACCUGGAGGUGGCAAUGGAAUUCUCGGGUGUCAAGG: 0.315
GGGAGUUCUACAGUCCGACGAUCGCAGGAAGUAAAAACAAAUAGAAAUGCUUCGGAUAGUGGCAGGGGUGGGGGUUGCUAAGGAAAGGGUGGGAUGGGAGUGGGUAAAGAGUUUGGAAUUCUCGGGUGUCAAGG: 0.252
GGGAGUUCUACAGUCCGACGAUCCACAGACAACACGAACCCACACAGACACAGAGGGAAGGGGUUGGGAUGGGGACAGGGUGCACAGCAGGGCGGGGUAGGACCCCAGCCCCUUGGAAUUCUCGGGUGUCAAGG: 1.57

Study 3 — technique: protein-binding microarray; form: double-stranded DNA, one strand shown; medium: in vitro; concentration: 250 nM; setting: 60-bp whole probe; together with: salmon DNA 0.4 mg/ml; relative to: random background probes; reading: higher = stronger binding; measurement: log fluorescence; constant ends, left off below: GCCTAGCAC … GTCTTGATTCGCTTGACGCTGCTG
Target: Interferon regulatory factor 5, full length, phosphomimetic (IRF5, Homo sapiens, UniProt Q13568-2, residues 1-514, K96S/S451D/S453D/S456D/S462D)
TTCGGTCTCCTTCTCCTTTAGTGCTAG: 1.13 z-score
CACTCTCTGGGCTGTGGGTTTGTGCTA: -0.0966 z-score
TTAGATATCAGACTGGATTAGTGCTAG: 0.225 z-score
TTAGGTTTCCTTATCCGTTAGTGCTAG: 1.14 z-score
TTGTGTTTGTCCCTATTTAAGTGCTAG: 0.396 z-score
TCATGCTCATTTTTCAGACTGTGCTAG: 0.231 z-score
TTAGAACTGCGGTATCGATTAGTGCTA: 3.25 z-score
GACGGTTCCATTTTCCTGACGTGCTAG: 0.579 z-score
GACGGTATCGACAATGGGGACGTGCTA: 1.84 z-score
GACGGTATCGACTCTCGGGACGTGCTA: 1.95 z-score
CAGATGGAATTAAGAAGATGGTGCTAG: -0.172 z-score
TTAGGACTGGGTTTGGGTTAGTGCTAG: -0.481 z-score
AATGACTCTATGAAGTAGTTGTGCTAG: -0.343 z-score
TTAGGTCTGGGTATCGGTTAGTGCTAG: 4.05 z-score
GACGATATCAGTCTCGGGACGTGCTAG: 1 z-score
GACGGTATGCTTCTCCTGACGTGCTAG: -0.066 z-score
CCGTGTTTCTCAACCATTTTGTGCTAG: 0.692 z-score
GACGGTTTCGTCACTGGGGACGTGCTA: 2.92 z-score
CCCTGGCTCCCTATAAAAGGGTGCTAG: -0.522 z-score
GACGGACTAGACTTTCGGGACGTGCTA: 4.17 z-score
TTAGGTTTCGATTTTCGGTTAGTGCTA: 9.87 z-score
TTAGATATCAGACTTGATTAGTGCTAG: 0.0995 z-score
CTCTATACCCATGTAGAGAGGTGCTAG: -0.152 z-score
GACTATTTCAGTTTCGAGACGTGCTAG: 7.1 z-score
GAGGGTTTCCTTTCCCTGACGTGCTAG: 0.8 z-score

Study 4 — technique: protein binding microarray; form: double-stranded DNA, one strand shown; medium: in vitro; concentration: not given; relative to: not given; reading: higher = stronger binding; measurement: E-score
Target: Histone acetyltransferase KAT6A, winged helix 2, GST fusion (KAT6A, Homo sapiens, UniProt Q92794, residues 85-181)
Setting: 8-mer, flanks averaged, mean of 2 arrays, mostly near background
Target sequence (chain): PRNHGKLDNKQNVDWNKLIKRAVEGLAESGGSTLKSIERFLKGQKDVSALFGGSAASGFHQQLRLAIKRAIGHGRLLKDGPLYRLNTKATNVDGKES
TATGGCGA: -0.0257
AGTGGAAA: 0.0347
TTTAGAAA: 0.112
ACTTAGGA: -0.0559
CCTGGCAC: -0.00169
CCTACCAA: 0.0718
CAGGACGA: -0.0433
TCGCATAA: -0.0666
CGGTGTGA: 0.103
AGTGGGGC: -0.255
GCTACCGA: 0.146
GCCTTTTA: -0.156
GGCTGGCA: 0.0192
CCATTTCA: -0.013
CTGAGGCA: 0.0223
GAAGTAAC: -0.162
GTGAACAA: 0.0485
GGTTCCTA: -0.0717
AACACCCG: 0.0794
AAGTCGAG: -0.0343
TACAATCA: -0.121
AAGGCGGC: 0.147
CCTGCATC: 0.165
ATCAGAAG: 0.114
ACCTAAAC: 0.0636

Repeated from above (study 4):
GCTACCGA: 0.146
AGTGGGGC: -0.255
CCTGCATC: 0.165
CCTACCAA: 0.0718
AGTGGAAA: 0.0347
TATGGCGA: -0.0257
GTGAACAA: 0.0485
